Measured values gathered from unrelated publications.
Parts stem from different laboratories: compare values within a part only. Several values in a cell are separate wells, animals, samples, runs or records.

Study 1
SMILES: O=C(O)C1(O)Oc2ccccc2N(Cc2ccccc2)C1=O (stereo not drawn)
| organism | assay | test system | conditions | scale | inhibition |
| --- | --- | --- | --- | --- | --- |
| Zea mays | fresh weight | – | soil surface spray, 150 g ai/ha, 21 days, pre-emergence crop safety | – | 10.4% and 13.4% and 12.5% |
| Arabidopsis thaliana | hypocotyl length | Col-0 | 6.25 µg/mL, 7 days, seed germination, dark | – | 0.9% |
| Arabidopsis thaliana | hypocotyl length | Col-0, seedlings | 3.125 µg/mL | – | 6.6% |
| Arabidopsis thaliana | root length | Col-0, seedlings | 3.125 µg/mL | reference: water control | 6.2% |
| Arabidopsis thaliana | hypocotyl length | Col-0, seedlings | 25 µg/mL | – | 28.4% |
| Setaria viridis | fresh weight | – | 150 g ai/ha, pre-emergence treatment | – | 74.4% and 78.1% |
| Arabidopsis thaliana | root length | Col-0, seedlings | 12.5 µg/mL | – | 4.59% |
| Echinochloa crus-galli | fresh weight | – | 150 g ai/ha, post-emergence treatment | – | 26% and 28.7% and 24.2% |
| Alopecurus japonicus | fresh weight | – | 150 g ai/ha, pre-emergence treatment | – | 68.2% and 68.6% and 65.4% |
| Arabidopsis thaliana | root length | Col-0 | 100 µg/mL, 7 days, seed germination, dark | – | 45.6% |
| Oryza sativa | fresh weight | – | soil surface spray, 150 g ai/ha, 21 days, pre-emergence crop safety | – | 4% and 5% and 4.8% |
| Alopecurus aequalis | fresh weight | – | 150 g ai/ha, pre-emergence treatment | – | 100% |
| Arabidopsis thaliana | root length | Col-0 | 12.5 µg/mL, 7 days, seed germination, dark | – | 7.9% |
| Arabidopsis thaliana | root length | Col-0, seedlings | 100 µg/mL | reference: water control | 43.6% |

Study 2
SMILES: CCN1/C(=C/C=C2\CCCC(/C=C/C3=[N+](CC)c4ccccc4C3(C)C)=C2NCCCCCCCCN2CCC(Nc3nc4ccccc4n3Cc3ccc(F)cc3)CC2)C(C)(C)c2ccccc21
Cell line: U-87 MG
Concentration: concentration not given
Reference: DMSO
| assay | log2 fold change |
| --- | --- |
| refers to: SSH3 mRNA | -0.835 |
| refers to: ADGRF2 mRNA | -3.69 |
| refers to: COL17A1 mRNA | -2.16 |
| refers to: R3HCC1L mRNA | 1.08 |
| refers to: NFXL1 mRNA | 0.966 |
| refers to: CCDC40 mRNA | 1.43 |
| refers to: LIN37 mRNA | 0.907 |
| refers to: ZNF473 mRNA | 0.965 |
| refers to: STARD5 mRNA | -1.33 |
| refers to: SH3BGR mRNA | 2.51 |
| refers to: CCNA2 mRNA | -2.3 |

Study 3
SMILES: COc1cc(C(=O)OCCCN2CCCN(CCCOC(=O)c3cc(OC)c(OC)c(OCc4ccc([N+](=O)[O-])cc4)c3)CC2)cc(OC)c1OC
Species: mouse, CFA inflammatory pain
| assay | conditions | paw withdrawal frequency |
| --- | --- | --- |
| von Frey, 0.4 g filament | intravenous, dose not given, 24 h post-dose, third injection, day 5 | 50% and 30% and 40% |
| von Frey, 0.4 g filament | intravenous, dose not given, 5 h post-dose, second injection, day 3 | 70% and 50% and 40% and 60% |
| von Frey, 0.4 g filament | intravenous, baseline before CFA | 0% and 10% and 20% |
| von Frey, 0.4 g filament | intravenous, dose not given, 1 h post-dose, second injection, day 3 | 40% and 20% and 30% |
| von Frey test | intrathecal, dose not given, 5 h, added: DPCPX 10 nmol intrathecal | 50% and 40% and 60% |
| von Frey, 0.4 g filament | subcutaneous, 10 mg/kg, 3 h post-dose, third injection, day 5 | 50% and 40% |
| von Frey, 0.4 g filament | subcutaneous, 10 mg/kg, 24 h post-dose, first injection, day 1 | 80% and 70% and 90% |
| von Frey, 0.4 g filament | intravenous, dose not given, 5 h post-dose, third injection, day 5 | 50% and 30% and 20% and 40% |
| von Frey, 0.4 g filament | intravenous, dose not given, 5 h post-dose, first injection, day 1 | 70% and 50% and 90% and 60% |

Single results of other studies
| SMILES | tested on | assay | test system | conditions | measurement | value |
| --- | --- | --- | --- | --- | --- | --- |
| Cc1ncsc1-c1ccc(C(CO)NC(=O)C2CC(O)CN2C(=O)C(C(C)C)n2cc(-c3ccc(COc4c(-c5c(C)c(F)cc6[nH]ncc56)c(C5CC5)cc5c(N6CC7CC6CN7)nc(OC6CCOCC6)nc45)cc3)nn2)cc1 (stereo not drawn) | AsPC-1 | in-cell ELISA, refers to: phospho-ERK1/2 | – | 100 nM | ERK1/2 phosphorylation | 9.32% and 18% and 9.02% |
| Cc1ncsc1-c1ccc(C(CO)NC(=O)C2CC(O)CN2C(=O)C(NC(=O)c2ccc(COc3c(-c4c(C)c(F)cc5[nH]ncc45)c(C4CC4)cc4c(N5CC6CC5CN6)nc(OC5CCOCC5)nc34)cc2)C(C)C)cc1 (stereo not drawn) | GTPase KRas (KRAS, Homo sapiens, UniProt P01116, G12D) | degrader, In-Cell ELISA | AsPC-1 (KRAS G12D) | 24 h, geometric mean | DC50 | 106 nM |

A few entries again (study 1):
| organism | assay | test system | conditions | scale | inhibition |
| --- | --- | --- | --- | --- | --- |
| Setaria viridis | fresh weight | – | 150 g ai/ha, pre-emergence treatment | – | 74.4% and 78.1% |
| Arabidopsis thaliana | root length | Col-0, seedlings | 12.5 µg/mL | – | 4.59% |
| Echinochloa crus-galli | fresh weight | – | 150 g ai/ha, post-emergence treatment | – | 26% and 28.7% and 24.2% |
| Alopecurus japonicus | fresh weight | – | 150 g ai/ha, pre-emergence treatment | – | 68.2% and 68.6% and 65.4% |
